Experimental data of several laboratories.
“And” joins repeats or separate records; there may be more than shown. ± marks the error that the study gave.

SMILES = O=C(C[Se]C(=O)c1ccccc1Nc1ccccc1)Nc1cccc(C(F)(F)F)c1; cell line = NCI60 NSCLC subpanel mean; assay = cell growth; endpoint = TGI; value = 3.21 µM
SMILES = COc1ccccc1-c1ccncc1C(=O)Nc1nnc(OCc2ccc(Cl)cc2)s1; cell line = DLD-1 BRCA2-/-; setting = 0.5 µM, mean of replicates; endpoint = colony count; value = 36.5 and 20.5 and 41
SMILES = C=CCc1c(O)cc2c(c1O)C(=O)CC(c1ccc(O)cc1)O2 (stereo not shown); cell line = HeLa; assay = cell growth or viability, MTT; setting = 12.5 µM, 48 h; endpoint = inhibition; value = 3.43%
SMILES = C1=[N+]2CCCC[N+]3=Cc4ccc5[n]4[Au-]23[n]2c1ccc2-c1nc2ccccc2nc1-5.F[P-](F)(F)(F)(F)F; cell line = SK-MEL-2; assay = NCI60 five-dose screen; endpoint = TGI; value = 4 -log M
SMILES = N#C[C@@H]1CCCN1C(=O)CNC(=O)c1ccnc2ccc(OCCCN3CCN(C(=O)CCc4ccc5c(c4)CN4CCN(Cc6cc(CCC(=O)O)ccc6O)CC(=O)[O][Al-]([18F])([O]C(=O)C4)[O]5)CC3)cc12 (stereo partly shown); cell line = HT1080 cells expressing human FAP; setting = 60 min, 37 °C; endpoint = internalized fraction; value = 74.8 ± 2.5%
SMILES = CCN(CC)CC(=O)Nc1cccc(-n2cc(-c3ccc4ccc(-c5cn(-c6cccc(NC(=O)CN(CC)CC)c6)nn5)cc4c3)nn2)c1; cell line = RCC4; assay = PCR angiogenesis array, measured: MDK; setting = 5 x IC50, 6 h, normoxia; how to read = relative to: untreated; endpoint = fold regulation; value = 1.06
SMILES = CCC(=CCc1c(O)cc2c(c1O)C(=O)CC(c1cccc(O)c1)O2)CC (stereo not shown); cell line = HeLa; assay = cell growth or viability, MTT; setting = 12.5 µM, 48 h; endpoint = inhibition; value = 18.5%
SMILES = CC(C)c1ccc(N(C)c2ccc3c(c2)OCC[C@H]3CNc2cnccc2C(=O)O)cc1; cell line = PF-382; assay = cell viability, CellTiter-Glo; setting = 7 days; endpoint = IC50; value = 3.69 nM
SMILES = COc1cc(N2CCN(C(=O)CN)CC2)ccc1Nc1ncc(Cl)c(Nc2ccccc2P(C)(C)=O)n1; cell line = NCI-H3122; assay = CCK-8; setting = 250 nM, 48 h; endpoint = viability; value = 27%
SMILES = Cn1ncc2cc(-c3cncc(Cl)c3N3CCC4(CCNC4=O)CC3)ccc21; cell line = LS174T; assay = gene expression, microarray, measured: LDB2 mRNA; setting = concentration not given, 4 h; how to read = relative to: untreated cells; endpoint = log2 fold change; value = 2.93
SMILES = CC(=O)N[C@@H](Cc1ccc(I)cc1)C(=O)N[C@@H](CCC(=O)O)C(=O)N[C@H](C(=O)N[C@@H](CC(=O)O)C(=O)COC(=O)c1c(C)cccc1C)[C@@H](C)O; cell line = THP-1 cells, LPS-primed; assay = pyroptosis, LDH release; setting = 25 µM, LPS 1 µg/mL, 4 h, together with: nigericin 5 µM, 2 h; endpoint = cell lysis; value = 33.8% and 73.6%
SMILES = CC12CCCC(n3cc(C(=O)N4CCC(N)CC4)nn3)(C1)C1CC(C)(C)C1CC2 (stereo not shown); cell line = HT-29; assay = cell growth or viability, CCK-8; setting = 50 µM; endpoint = inhibition; value = 83.7%
SMILES = O=S(=O)(N[C@H]1CCO[C@@H](C2c3ccc(F)cc3CCc3cc(F)ccc32)C1)c1ccc(OC(F)(F)F)cc1; cell line = D341; assay = immunoblot; setting = concentration not given; endpoint = CCR2 protein level; value = decreased
SMILES = CC(C)(C)c1nc(-c2cccc(NS(=O)(=O)c3c(F)cccc3F)c2F)c(-c2ccnc(N)n2)s1.Cc1[nH]c2ccccc2c1CCNCc1ccc(/C=C/C(=O)NO)cc1; cell line = A2780; assay = annexin V/PI flow cytometry; setting = concentration not given, 48 h; how to read = relative to: untreated; endpoint = late apoptotic cells; value = 6.7 ± 0.7%
SMILES = CNS(=O)(=O)Nc1nccc(Cc2c(C)c3ccc(Oc4ncccc4F)cc3oc2=O)c1F; cell line = COR-L47; assay = cell viability; setting = 7 days; endpoint = IC50; value = > 1000 nM
SMILES = COc1ccc(CNC[C@@](O)(COCc2ccccc2)[C@@H]2CC[C@@H](C)C[C@H]2OCc2ccccc2)cc1; cell line = HeLa; assay = cell growth or viability, MTT; setting = 10 µM, 72 h; endpoint = inhibition; value = 95.8%
SMILES = CN1CCCNC(=O)c2cccc(c2)C(=O)NCCCN(C)CCCNc2cccc3c2C(=O)c2cccc(c2C3=O)NCCC1; cell line = SAS; assay = RNA-Seq, measured: ANKFY1 mRNA; setting = 1 µM, 6 h; how to read = relative to: untreated cells; endpoint = log2 fold change; value = -0.992
SMILES = Cc1ncsc1-c1ccc(C(C)NC(=O)C2CC(O)CN2C(=O)C(NC(=O)CCCCCCCCCCN2CCCC(Nc3ncc(Cl)c(Nc4ccccc4S(=O)(=O)C(C)C)n3)C2)C(C)(C)C)cc1 (stereo not shown); cell line = 22Rv1; assay = RNA-seq, measured: PPARA mRNA; setting = concentration not given; how to read = relative to: DMSO; endpoint = log2 fold change; value = -1.5
SMILES = CC12CCCC(n3cc(C(=O)N4CC(N)C4)nn3)(C1)C1CC(C)(C)C1CC2 (stereo not shown); cell line = HT-29; assay = cell growth or viability, CCK-8; setting = 10 µM; endpoint = inhibition; value = 75.7%

Repeated from above:
SMILES = C=CCc1c(O)cc2c(c1O)C(=O)CC(c1ccc(O)cc1)O2 (stereo not shown); cell line = HeLa; assay = cell growth or viability, MTT; setting = 12.5 µM, 48 h; endpoint = inhibition; value = 3.43%
SMILES = O=S(=O)(N[C@H]1CCO[C@@H](C2c3ccc(F)cc3CCc3cc(F)ccc32)C1)c1ccc(OC(F)(F)F)cc1; cell line = D341; assay = immunoblot; setting = concentration not given; endpoint = CCR2 protein level; value = decreased
